Experimental data pooled from the literature.
Parts stem from different laboratories: compare values within a part only.

Block 1 — target: UBE2E1 UBC core domain (UniProt P51965); method: yeast two-hybrid; medium: yeast; notes: mostly zero background; reference: not given; direction: higher = stronger interaction; measurement: lacZ reporter activity
Chain of UniProt P51965 (whole entry, looked up): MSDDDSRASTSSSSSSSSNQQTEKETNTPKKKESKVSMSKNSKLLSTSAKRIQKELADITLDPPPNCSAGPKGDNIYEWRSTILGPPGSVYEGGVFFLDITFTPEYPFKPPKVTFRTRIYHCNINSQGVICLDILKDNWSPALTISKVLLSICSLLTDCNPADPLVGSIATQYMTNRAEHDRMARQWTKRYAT
B1: TRIM68 RING domain (UniProt Q6AZZ1); chain LVEAIVEEVACPICMTFLREPMSIDCGHSFCHSCLSGLWEIPGESQNWGYTCPLCRAPVQPRNLRP
B2: TRIM47 RING domain (UniProt Q96LD4); chain MDGSGPFSCPICLEPLREPVTLPCGHNFCLACLGALWPHRGASGAGGPGGAARCPLCQEPFPDGLQLR
B3: TRIM74 RING domain (UniProt Q86UV6); chain SLLELEDWLQCPICLEVFKESLMLQCGHSYCKGCLVSLSYHLDTKVRCPMCWQVVDGSSSLP
B4: SHPRH RING domain (UniProt Q149N8); chain KTSGGVNPEPCPICARQLGKQWAVLTCGHCFCNECISIIIEQYSVGSHRSSIKCAICRQTTSHKEISY
MEEMEEELKCPVCGSFYREPIILPCSHNLCQACARNILVQTPESESPQSHRAAGSGVSDY (TRIM9 RING domain (UniProt Q9C026)): 0
FLSKVEETFQCICCQELVFRPITTVCQHNVCKDCLDRSFRAQVFSCPACRYDLGRSYAMQ (UHRF1 RING domain (UniProt Q96T88)): 0
GSEEEEIPFRCFICRQAFQNPVVTKCRHYFCESCALEHFRATPRCYICDQPTGGIFNPA (RNF113B RING domain (UniProt Q8IZP6)): 0
B1 (TRIM68 RING domain): 0
B2 (TRIM47 RING domain): 0
B3 (TRIM74 RING domain): 0
B4 (SHPRH RING domain): 0
EDVLSKDAGECAICLEELQQGDTIARLPCLCIYHKGCIDEWFEVNRSCPEHPSD (ZNRF2 RING domain (UniProt Q8NHG8)): 0

Block 2 — method: protein-binding microarray; molecule type: double-stranded DNA, one strand shown; medium: in vitro; tested at: 2540 nM top; notes: 60-bp whole probe; with: salmon DNA 0.4 mg/ml; reference: random background probes; direction: higher = stronger binding; measurement: fitted relative affinity; shared flanks, not repeated: GCCTAGCAC … GTCTTGATTCGCTTGACGCTGCTG
Target: Interferon regulatory factor 3, full length, phosphomimetic (IRF3, Homo sapiens, UniProt Q14653, residues 1-427, S386D/S396D/S398D/S402D/T404D/S405D)
Construct (chain): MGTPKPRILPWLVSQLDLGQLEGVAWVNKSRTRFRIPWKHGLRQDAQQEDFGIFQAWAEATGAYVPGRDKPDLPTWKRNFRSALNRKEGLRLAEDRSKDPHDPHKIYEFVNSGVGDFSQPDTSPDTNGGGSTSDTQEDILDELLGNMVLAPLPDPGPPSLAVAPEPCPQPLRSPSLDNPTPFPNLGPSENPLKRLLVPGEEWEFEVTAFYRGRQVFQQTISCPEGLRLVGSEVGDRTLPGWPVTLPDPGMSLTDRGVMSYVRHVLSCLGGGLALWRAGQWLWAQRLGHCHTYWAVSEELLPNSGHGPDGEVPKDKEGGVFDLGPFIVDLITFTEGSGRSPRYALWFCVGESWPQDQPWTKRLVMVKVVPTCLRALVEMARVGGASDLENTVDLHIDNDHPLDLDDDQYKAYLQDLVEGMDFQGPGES
TTAGATCTCAGTTGCGATTAGTGCTAG: 0.888 z-score
TTAGGTATCGGGTTGCGGTTAGTGCTA: 1.75 z-score
TTAGGTTCCGGGTTTCGGTTAGTGCTA: 3.75 z-score
GAAGGTATCGACACTGGGGACGTGCTA: 0.013 z-score
GACGATTTCAGACTCGAGACGTGCTAG: 1.57 z-score
GACGGTATCGACTTTCGGGACGTGCTA: 1.39 z-score
TTAGCTTTCGGGTTTCGGTTAGTGCTA: 4.21 z-score
TTAGATTTCAGACTGGATCAGTGCTAG: 0.67 z-score
TTAGGTCTCCTTCTTCTTTAGTGCTAG: 3.8 z-score
AGTTCTAAGGATTTCAGTTTGTGCTAG: 0.752 z-score
GACCATTTCAGTTTCGAGACGTGCTAG: 4.4 z-score
TTAGGTTTCGACACTGCGTTAGTGCTA: 2.53 z-score

Block 3 — method: universal PBM; molecule type: double-stranded DNA, one strand shown; medium: in vitro; tested at: 600 nM; direction: higher = stronger binding; measurement: E-score
Target: Sal-like protein 4, full length isoform A (SALL4, Homo sapiens, UniProt Q9UJQ4, residues 1-1053)
Chain of UniProt Q9UJQ4 (whole entry, looked up): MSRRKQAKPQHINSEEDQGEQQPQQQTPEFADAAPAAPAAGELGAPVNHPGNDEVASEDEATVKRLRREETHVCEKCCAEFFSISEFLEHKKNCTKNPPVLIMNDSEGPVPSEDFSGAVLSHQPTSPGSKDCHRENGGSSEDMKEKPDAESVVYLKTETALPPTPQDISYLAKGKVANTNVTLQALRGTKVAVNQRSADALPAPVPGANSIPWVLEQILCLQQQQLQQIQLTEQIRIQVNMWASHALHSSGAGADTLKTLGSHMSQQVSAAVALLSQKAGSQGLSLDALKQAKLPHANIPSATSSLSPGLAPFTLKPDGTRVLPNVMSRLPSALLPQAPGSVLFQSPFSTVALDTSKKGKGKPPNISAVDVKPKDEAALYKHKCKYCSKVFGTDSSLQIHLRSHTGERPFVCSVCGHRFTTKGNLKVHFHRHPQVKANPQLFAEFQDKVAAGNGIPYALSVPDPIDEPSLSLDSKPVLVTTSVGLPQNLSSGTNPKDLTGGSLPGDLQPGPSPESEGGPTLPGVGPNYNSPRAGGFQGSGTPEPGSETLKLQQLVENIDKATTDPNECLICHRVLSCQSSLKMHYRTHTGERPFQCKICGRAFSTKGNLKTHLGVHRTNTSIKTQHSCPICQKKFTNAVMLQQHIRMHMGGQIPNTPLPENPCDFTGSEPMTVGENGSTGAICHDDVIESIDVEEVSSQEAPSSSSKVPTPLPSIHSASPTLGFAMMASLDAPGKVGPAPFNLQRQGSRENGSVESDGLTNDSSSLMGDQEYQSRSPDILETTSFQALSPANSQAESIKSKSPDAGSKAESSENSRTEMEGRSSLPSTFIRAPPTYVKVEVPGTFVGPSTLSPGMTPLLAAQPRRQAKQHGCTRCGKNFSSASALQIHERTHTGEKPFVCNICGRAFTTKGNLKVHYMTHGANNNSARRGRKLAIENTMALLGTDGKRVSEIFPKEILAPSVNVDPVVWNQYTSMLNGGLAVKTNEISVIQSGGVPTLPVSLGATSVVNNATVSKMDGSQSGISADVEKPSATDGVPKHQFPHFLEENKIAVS
Notes: 8-mer, flanks averaged, mean of replicates
CAAGACAA: 0.0908
ACGGATGC: -0.0245
CCTCTCGC: -0.0915
ACCTTTGG: -0.149
ACTAAACG: -0.00577
ACATGCGA: 0.0888
AAATCATA: 0.38
ACCCTTCA: 0.012
AGTGCGGA: -0.154
AAGCAATG: 0.0911
GCCGGTAA: -0.168
CCTTGTCG: -0.0469
CTCGCCGA: -0.278
CCTGGGCA: -0.271
CAACACCC: -0.124
CGTTTATA: 0.317
TATCCAGA: 0.0147
GATCGTGA: -0.0441
TCGCGTAA: 0.126
ACACAATC: 0.0625
AGTGATAC: 0.0851
GAGTGCCC: -0.335
GAAAAATC: 0.147
ATAAGGCC: -0.086
ATCCTTGA: 0.102

Block 4 — method: RNA Bind-n-Seq; molecule type: RNA; medium: in vitro; tested at: not given; reference: input RNA pool; direction: higher = stronger binding; measurement: bound/input enrichment
Target: RING finger protein unkempt homolog, zinc fingers 1-6, GST-SBP tag (UNK, Homo sapiens, UniProt Q9C0B0, residues 30-357)
Chain of UniProt Q9C0B0 (30-357, looked up): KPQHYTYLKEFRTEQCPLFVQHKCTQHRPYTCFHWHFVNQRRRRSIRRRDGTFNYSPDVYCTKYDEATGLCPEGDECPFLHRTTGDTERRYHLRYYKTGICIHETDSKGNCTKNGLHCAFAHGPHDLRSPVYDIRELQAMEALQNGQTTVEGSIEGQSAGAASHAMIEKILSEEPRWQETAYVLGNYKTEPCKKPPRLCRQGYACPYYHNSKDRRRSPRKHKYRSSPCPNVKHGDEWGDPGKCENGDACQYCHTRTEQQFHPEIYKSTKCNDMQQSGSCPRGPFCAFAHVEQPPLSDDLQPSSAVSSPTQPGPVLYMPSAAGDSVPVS
Notes: RNA with constant flanks, human and mouse sites, ends assumed
Shared flanks, not repeated: GGGAGUUCUACAGUCCGACGAUC … CAACAGAGGAUUGAGCAUCA
AGCAAUAAAACAUAAUCACUCUAUUUGAAGAAAAUAUCUUGUUUUCUGCCAAUAGAUUUUUUAAAAUGUAGUCAGCAAAAUGGGGGUGGGGAAGCAGAGCAUGUCCUAGUUCAAUGUUGA: 0.803 ratio
AACCACCUCAUCCAAAAUAUCCCGGGCUUCUGGGGGCAAGCAUUUCAGAACCAUCCCCAGCUAGCAUCCUUUCUGAAUAGCCAAGAGAAAGAGGUACUGAGCUACUUAAACAGCUUGGAA: 0.458 ratio
GACGUGUCUCCUUCUCUGCAUGCCGAGGUGGGUUCUCCACAUUCCACAGAAGUUGAUGACUCCCUGUCCGUUUCUGUGGUGCAAACACCUACCACGUUCCAGGAAACAGAAAUGUCUCCA: 0.198 ratio
GCCAUUGCUAUGCACUUCAACCUCUCUACCAGCCAGGUCCCUGCCAAGACAGACUGUGUCAUGUUCUUCGGACCUGUGGUCCCAGAUGGUUAUGGCAUCUGCUACAACCCCAUGGAGGCC: 0.118 ratio
UCCUGGUGCGACAGCGUGGGACAAUGUGAACAUGGACUCGAAGACAUGGCCCUUUCUCUGUAGUUGAUUUUUUAAAUGUGCCAUUAUUGUUUUUAAAAAAAAAGGAAAAAAGAAAAGCAA: 0.432 ratio

Block 5 — method: protein binding microarray; molecule type: double-stranded DNA, one strand shown; medium: in vitro; tested at: not given; reference: not given; direction: higher = stronger binding; measurement: E-score
Target: Histone acetyltransferase KAT6A, winged helix 2, GST fusion (KAT6A, Homo sapiens, UniProt Q92794, residues 85-181)
Notes: 8-mer, flanks averaged, mean of 2 arrays, mostly near background
Construct (chain): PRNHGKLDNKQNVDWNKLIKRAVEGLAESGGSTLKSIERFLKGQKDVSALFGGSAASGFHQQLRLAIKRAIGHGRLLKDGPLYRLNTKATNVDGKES
CTGGCCTC: 0.028
CGTAGCGA: -0.0544
AAGCCAAC: 0.0264
ATTAACGC: -0.153
AAGCGCTC: 0.0141
CTCACCAG: 0.105
GAATAGAC: -0.117
ATGCACGC: -0.00413
CCCCTCTA: -0.0886
AAGGCATC: -0.11
AGCCAGCC: -0.154
CCAGCACA: 0.106
CTCGGCTC: 0.103
ACACTTGC: -0.0438
CCAAGCGG: 0.043
CGCGCACG: 0.0875
CTAGGCGC: 0.0306
GGCGTAAC: -0.196
GAACTCGA: -0.0337
GTGGAAGA: 0.143
CGTGCACA: -0.113
ACCTTCAA: 0.0291
